Assay results of several laboratories.
“And” joins repeats or separate records; there may be more than shown. Numbers after ± are the reported error. Values after ≈ are worked out from the molar mass of the structure shown.
TDP1: Tyrosyl-DNA phosphodiesterase 1 (TDP1, Homo sapiens, UniProt Q9NUW8)
Chain of UniProt Q9NUW8 (whole entry, looked up): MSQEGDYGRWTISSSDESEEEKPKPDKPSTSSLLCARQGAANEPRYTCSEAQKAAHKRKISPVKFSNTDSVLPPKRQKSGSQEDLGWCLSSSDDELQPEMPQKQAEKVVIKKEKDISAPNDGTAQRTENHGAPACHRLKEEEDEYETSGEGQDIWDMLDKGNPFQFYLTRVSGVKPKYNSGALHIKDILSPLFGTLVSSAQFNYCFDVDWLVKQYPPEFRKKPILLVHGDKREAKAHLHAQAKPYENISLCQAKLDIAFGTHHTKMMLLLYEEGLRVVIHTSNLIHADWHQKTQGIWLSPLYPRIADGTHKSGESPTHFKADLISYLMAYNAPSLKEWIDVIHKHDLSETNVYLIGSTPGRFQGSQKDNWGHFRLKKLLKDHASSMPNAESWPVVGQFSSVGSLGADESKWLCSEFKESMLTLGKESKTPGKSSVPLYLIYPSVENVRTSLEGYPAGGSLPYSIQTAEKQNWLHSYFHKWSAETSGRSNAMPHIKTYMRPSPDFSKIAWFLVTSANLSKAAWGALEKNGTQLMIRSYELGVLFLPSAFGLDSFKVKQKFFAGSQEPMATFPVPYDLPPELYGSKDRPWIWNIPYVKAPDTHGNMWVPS

SMILES | tested on | test | test system | conditions | endpoint | result
CCCCCCCCCCn1cc[n+](CCCCCCOc2cc(OCCCCCC[n+]3ccn(CCCCCCCCCC)c3)cc(OCCCCCC[n+]3ccn(CCCCCCCCCC)c3)c2)c1.[Br-].[Br-].[Br-] | Enterococcus faecalis |  | OG1RF |  | MIC | 4 µM
CC1C=CC=CC(C)C2C=CC3CC(C)(O)C(Cl)C(C)C3C2C(=O)C(Cl)(Cl)C(=O)C(C)C(=O)O1 (centres unmarked) | Staphylococcus aureus |  | MRSA clinical isolate | Resistant, OXA, GEN, ERY, CLI, SXT | MIC | 0.1 µg/mL
C=C[C@]1(C)C[C@@H](OC(=O)CSc2ccc(NC(=O)c3ccco3)cc2)[C@]2(C)[C@H](C)CC[C@]3(CCC(=O)[C@H]32)[C@@H](C)[C@@H]1O | Mycoplasma gallisepticum |  | infected chickens, lung | intramuscular, 80 mg/kg daily x3, 72 h | lung mycoplasma count | 2.67 log10 CFU/mL and 3.26 log10 CFU/mL and 3.89 log10 CFU/mL and 3.3 log10 CFU/mL and 2.69 log10 CFU/mL and 3 log10 CFU/mL and 2 log10 CFU/mL
OC[C@H]1O[C@@H]2O[C@H]3[C@H](O)[C@@H](O)[C@@H](O[C@H]4[C@H](O)[C@@H](O)[C@@H](O[C@H]5[C@H](O)[C@@H](O)[C@@H](O[C@H]6[C@H](O)[C@@H](O)[C@@H](O[C@H]7[C@H](O)[C@@H](O)[C@@H](O[C@H]1[C@H](O)[C@H]2O)O[C@@H]7CO)O[C@@H]6CO)O[C@@H]5CO)O[C@@H]4CO)O[C@@H]3CO | Escherichia coli | LuxR reporter, antagonist | DH5α sensor strain | 100 µM, together with: OHHL 200 nM | inhibition | 2 ± 1%
CC(C)(C)NCC(SS(=O)(=O)O)c1ccccc1 (centres unmarked) | Schistosoma mansoni | perfusion day 44 | infected Swiss Webster mice | 600 mg/kg single dose, dosed day 1 post-infection | liver weight | 2.96 g and 1.9 g and 1.98 g and 2.9 g
Cc1ccc(S(=O)(=O)Nn2c3c(cc(-c4nc5ccccc5s4)c2=O)CCCC3)cc1 | human adenovirus 7 | viral replication, plaque | HEp-2 | non-toxic dose, mean of three titres | plaque reduction | 30%
O=C(O)c1ccc(Nc2c(-c3ccccc3)nc3ccc(CON=Cc4ccccc4)cn23)cc1 | TDP1 | enzyme activity, inhibitor |  | 100 µM, unpurified compound | inhibition | 0.1%
CCOC(=O)c1cc(-c2nc3ccccc3s2)c(=O)n(NS(=O)(=O)c2ccccc2)c1N | coxsackievirus B4 | viral replication, plaque | BGM | non-toxic dose, mean of three titres | plaque reduction | 0%
CC(=O)O[C@@H]1[C@@H](OC(C)=O)[C@H](Sc2sc(C(=O)c3ccc(C)cc3)c(N)c2-c2nc3ccccc3s2)OC[C@H]1OC(C)=O | coxsackievirus B4 | plaque reduction |  | non-toxic concentration | viral titre reduction | 20%
C=C(NC(=O)c1csc(-c2nc3c(cc2O)-c2nc(cs2)C(=O)NC(C(C)O)C(=O)NC(=C(C)OC)c2nc(cs2)C(=O)NC2c4nc(cs4)C(=O)NC(COC(=O)c4c5c6c(cccc6n4O)COC(=O)C(OC4CC(C)(O)C(N(C)C)C(C)O4)C2OC5)c2nc-3cs2)n1)C(N)=O (centres unmarked) | Staphylococcus epidermidis |  | methicillin-resistant, 10 isolates | pH 8.5 | MIC50 | 0.0156 µg/mL (≈ 0.0109 µM)
Nc1c(C(=O)c2ccc(Cl)cc2)sc(S)c1-c1nc2ccccc2s1 | coxsackievirus B4 | plaque reduction |  | non-toxic concentration | viral titre reduction | 30%
CC=C(C)C(=O)OC1CC2C(C=C(C)C3C(OC(C)=O)CC(=O)C13C)OC(=O)C2C (centres unmarked) | Helicobacter pylori | microbial growth, broth dilution |  | 0.98 µg/mL | inhibition | 0%
CC1(F)CN(C(=O)Cn2c(=O)c(C(=O)NCc3ccc(Cl)cc3)cc3nc(N4CCN(CCN)C4=O)cnc32)C1 | Epstein-Barr virus | viral replication, qPCR |  | retest 2 | EC50 | 0.06 µM
CCCCCCCCn1cc[n+](CCCCCCCCCCOc2cc(OCCCCCCCCCC[n+]3ccn(CCCCCCCC)c3)cc(OCCCCCCCCCC[n+]3ccn(CCCCCCCC)c3)c2)c1.[Br-].[Br-].[Br-] | Enterococcus faecalis |  | OG1RF |  | MIC | 16 µM
[2H]C([2H])([2H])C1(C([2H])([2H])[2H])NC(=O)N(c2ccc(F)c(C(C)(F)F)c2)C1=O | Schistosoma japonicum |  | adult, mouse | oral, single dose | ED50 | 6.3 mg/kg
Cc1cccc2c1N(C(=O)n1ccnn1)CC2 | Arabidopsis thaliana |  | atd14-1 mutant, seedlings | 5 µM, together with: (±)-GR24 1 µM | hypocotyl length | 7.63 mm
Nc1nc(-c2ccccc2)nc2[nH]nc(Nc3ccccc3)c12 | rhinovirus A2 | viral cytopathic effect | HeLa |  | IC50 | 2.44 µM
Cc1cc(C(=O)Nc2nc3cccc(C)c3n2[C@H]2CCCCN(C(=O)/C=C/CN(C)C)C2)ccn1 | Trypanosoma brucei brucei |  | Lister 427 | 0.069 µM, 6 h, kill kinetics | proliferation | 128% and 117% and 124% and 129% and 232% and 233%

SMILES | tested on | test | test system | conditions | endpoint | result
Cc1cc(Br)c2c(c1)C(O)(CC(=O)c1ccc(F)cc1)C(=O)N2 (centres unmarked) | Uncharacterized protein (Trypanosoma brucei brucei, UniProt Q386Q8) | inhibitor, coupled colorimetric | Trypanosoma brucei |  | IC50 | > 100 µM
CO[C@@H]1OC[C@@H](O)[C@H](O)[C@H]1O | Helicobacter pylori | microbial growth, broth dilution |  | 0.48 µg/mL | inhibition | 0%
CC(=O)O[C@@H]1[C@@H](OC(C)=O)[C@H](Sc2sc(C(=O)c3ccc(Cl)cc3)c(N)c2-c2nc3ccccc3s2)OC[C@H]1OC(C)=O | human adenovirus 7 | plaque reduction |  | non-toxic dose NG, mean over three titres | viral reduction | 0%
Nc1nc(-c2ccccc2)nc2[nH]nc(Nc3ccccc3F)c12 | rhinovirus A2 | viral cytopathic effect | HeLa |  | IC50 | 58.4 µM
CC(=O)OC[C@H]1O[C@@H](Sc2sc(C(=O)c3ccc(Cl)cc3)c(N)c2-c2nc3ccccc3s2)[C@H](OC(C)=O)[C@@H](OC(C)=O)[C@H]1OC(C)=O | coxsackievirus B4 | plaque reduction |  | non-toxic concentration | viral titre reduction | 20%
O=C(O)c1ccc(Nc2c(-c3ccc(CON=Cc4ccc(OCc5ccc6nsnc6c5)cc4)cc3)nc3cc(-c4ccccc4)ccn23)cc1 | TDP1 | enzyme activity, inhibitor |  | 100 µM | inhibition | 75.7%
CC(C)[C@@H]1NC(=O)[C@@H](CCCNC(=N)N)NC(=O)[C@H]([C@@H](C)O)NC(=O)[C@@H](CCCN)NC(=O)[C@H](Cc2ccccc2)NC(=O)[C@@H](Cc2ccc(F)cc2)NC1=O | Balamuthia mandrillaris | parasite growth, ATP luminescence |  |  | IC90 | 17.9 µM
CNCc1ccc2c(c1)N(C(=O)OCc1c(F)c(F)c(F)c(F)c1F)[C@H](CNC(=N)N)[C@H]2NC(=O)C(=O)Nc1ccc(Cl)c(F)c1 | Human immunodeficiency virus 1 | viral infection, Env pseudovirus | TZM-bl, 620345.c01 CRF01_AE |  | IC80 | 55.7 µM
Nc1c(C(=O)c2ccc(Br)cc2)sc(S)c1-c1nc2ccccc2s1 | coxsackievirus B4 | plaque reduction |  | non-toxic dose NG, mean over three titres | viral reduction | 33.3%
COc1ccccc1-c1n[nH]c2nc(N[C@H]3CC[C@H](NS(=O)(=O)CC(C)C)CC3)ncc12 | Leishmania donovani | parasite growth |  | amastigote | EC50 | 0.0052 µM
CC(=O)O[C@@H]1[C@@H](OC(C)=O)[C@H](Sc2sc(C(=O)c3ccc(Br)cc3)c(N)c2-c2nc3ccccc3s2)OC[C@@H]1OC(C)=O | coxsackievirus B4 | plaque reduction |  | non-toxic dose NG, mean over three titres | viral reduction | 40%
Nc1nc(-c2ccccc2)nc2[nH]nc(Nc3cccc(F)c3)c12 | rhinovirus A2 | viral cytopathic effect | HeLa |  | IC50 | 9.05 µM
C[C@@H]1C(=O)O[C@@H](C)/C=C/C=C\[C@@H](C)[C@@H]2C=C[C@@H]3C[C@@]4(C)O[C@H]4[C@@H](C)[C@H]3[C@@H]2C(=O)C(Cl)(Cl)C1=O | Staphylococcus aureus |  | MSSA and MRSA clinical isolates | 180 isolates | MIC90 | 0.1 µg/mL (≈ 0.202 µM)
Nc1nc(-c2ccccc2)nc2[nH]nc(Nc3ccc(O)cc3)c12 | rhinovirus A2 | viral cytopathic effect | HeLa |  | IC50 | 99.3 µM
C/C=C(/C)C(=O)O[C@@H]1C=C(C)CC[C@]2(O)[C@@H](C(C)C)CC(=O)[C@]12C | Helicobacter pylori | microbial growth, broth dilution |  | 3.9 µg/mL | inhibition | 0%
Nc1nc(-c2ccc(C(F)(F)F)cc2)nc2[nH]nc(Nc3ccc(F)cc3)c12 | rhinovirus A2 | viral cytopathic effect | HeLa |  | IC50 | 0.77 µM
Cc1ccc(C(=O)c2sc(S)c(-c3nc4ccccc4s3)c2N)cc1 | coxsackievirus B4 | plaque reduction |  | non-toxic dose NG, mean over three titres | viral reduction | 26.7%

For quick reference, copied from above:
SMILES | tested on | test | test system | conditions | endpoint | result
Nc1nc(-c2ccc(C(F)(F)F)cc2)nc2[nH]nc(Nc3ccc(F)cc3)c12 | rhinovirus A2 | viral cytopathic effect | HeLa |  | IC50 | 0.77 µM
CC(=O)O[C@@H]1[C@@H](OC(C)=O)[C@H](Sc2sc(C(=O)c3ccc(Cl)cc3)c(N)c2-c2nc3ccccc3s2)OC[C@H]1OC(C)=O | human adenovirus 7 | plaque reduction |  | non-toxic dose NG, mean over three titres | viral reduction | 0%
